Experimental data gathered from unrelated publications.
Each line is one published result; not all experiments were run side by side. “And” joins repeats or separate records; there may be more than shown. ± marks the error that the study gave.

Cc1c(Cl)cccc1Nc1ccccc1C(=O)[Se]CC(=O)Nc1cccc(C(F)(F)F)c1  GI50 (NCI60 renal subpanel; cell growth, inhibitor; five-dose): 1790 nM
C#CC(C)(C)C(=O)SCCOP1(=O)OCC2OC(n3cnc4c(N)ncnc43)CC2OP(=O)(OCCSC(=O)C(C)(C)C#C)OCC2OC(n3cnc4c(N)ncnc43)CC2O1 (stereo not shown)  STING activation (THP1-Lucia; IRF reporter gene; concentration not given, 4 h): inactive
O=C(C[Se]C(=O)c1ccc2ccccc2c1)Nc1cccc(C(F)(F)F)c1  GI50 (NCI60 renal subpanel; cell growth, inhibitor; five-dose): 1890 nM
CN(C)CCN1CCN(c2ccc3nc(-c4ccc5nc(-c6ccc(C(F)(F)F)cc6)[nH]c5c4)[nH]c3c2)CC1  growth percent (SNB-75; SRB; 10 µM, 48 h): 38.8%
CN1CCCNC(=O)c2cccc(c2)C(=O)NCCCN(C)CCCNc2cccc3c2C(=O)c2cccc(c2C3=O)NCCC1  log2 fold change (SAS; RNA-Seq, refers to: UBE2D3 mRNA; 1 µM, 6 h; baseline: untreated cells): -0.665
C=CC(=O)N1[C@H](c2ccc3c(c2)OCO3)c2[nH]c3ccccc3c2C[C@@H]1C(=O)NC  mean neuron degeneration (rat DRG neurons; 10 µM, 48 h, added: vincristine 40 nM): 11.5%
COC(=O)c1cc(NC2=NC(=O)C(=Cc3ccc(N(C)C)cc3)S2)ccc1OC(C)=O  metabolite level (MCF7; GC-MS, refers to: L-Valine; 1 µM; baseline: DMSO): -0.19 fold change
Cc1cc(NC2CCN(C)CC2)ccc1-c1cc2c(N3CCC[C@H](C(=O)NCc4ccc(Cl)nc4)C3)ncnc2[nH]1  inhibition (NCI-H2228; cell growth or viability, MTT; 0.04 µg/mL, 72 h): 11.6%
CCN(CC)CC(=O)Nc1cccc(-n2cc(-c3ccc4ccc(-c5cn(-c6cccc(NC(=O)CN(CC)CC)c6)nn5)cc4c3)nn2)c1  fold regulation (RCC4; PCR angiogenesis array, refers to: PGF; 5 x IC50, 4 h, normoxia; baseline: untreated): -2.23
CC1=C/C(=N\N=C(/S)Nc2cccnc2)CC(C)(C)C1  efficacy (LDR; silenced CMV-GFP reporter derepression, qHTS): 211%
CCN(C(=O)c1cc(F)ccc1Oc1nncnc1N1CCC2(C1)CN([C@H](CCCN(C)CCOC)C(C)C)C2)C(C)C  GI50 (SU-DHL10; cell growth or viability; 7 days): > 10000 nM
O=C(NCc1ccc(OC(F)(F)F)cc1)[C@H]1CCCN(c2ncnc3[nH]c(-c4ccc(N5CCOCC5)cc4)cc23)C1  inhibition (NCI-H2228; cell growth or viability, MTT; 0.008 µg/mL, 72 h): 18.3%
COc1ccc2c(c1)OC1=C(C(=O)CCC1)C2c1c[nH]c2ccccc12 (stereo not shown)  mRNA level (mouse preadipocytes; qPCR, refers to: HSL; IC20, 14 days, adipogenic induction; baseline: untreated cells): decreased
Cn1ncc2cc(-c3cncc(Cl)c3N3CCC4(CCNC4=O)CC3)ccc21  log2 fold change (LS174T; gene expression, microarray, refers to: ABCA1 mRNA; concentration not given, 4 h; baseline: untreated cells): 1.1
CNS(=O)(=O)Nc1nccc(Cc2c(C)c3ccc(Oc4ncccc4F)cc3oc2=O)c1F  IC50 (A204; cell viability; 7 days): > 1000 nM
Cc1cc(NC2CCN(C)CC2)ccc1-c1cc2c(N3CCC[C@H](C(=O)Nc4cccc(Cl)c4)C3)ncnc2[nH]1  inhibition (NCI-H2228; cell growth or viability, MTT; 0.2 µg/mL, 72 h): 63.1%
Cc1ncsc1-c1ccc(C(C)NC(=O)C2CC(O)CN2C(=O)C(NC(=O)CCCCCCCCCCN2CCCC(Nc3ncc(Cl)c(Nc4ccccc4S(=O)(=O)C(C)C)n3)C2)C(C)(C)C)cc1 (stereo not shown)  log2 fold change (22Rv1; RNA-seq, refers to: SLC45A4 mRNA; concentration not given; baseline: DMSO): -1.73
O=C(C[Se]C(=O)c1cccnc1Nc1cccc(C(F)(F)F)c1)Nc1cccc(C(F)(F)F)c1  mean TGI (NCI60 renal subpanel; total growth inhibition, inhibitor; five-dose): 3700 nM
COc1ccc(NC(=O)c2ccc3[nH]c(-c4ccc(N(C)C)cc4)nc3c2)cn1  reporter activity (HCT-116; refers to: CXCL1 luciferase reporter; concentration not given, unit not given; baseline: DMSO): 4.67 and 3.15 and 3.29
O=C(C[Se]C(=O)c1cc2ccccc2[nH]1)Nc1cccc(C(F)(F)F)c1  mean TGI (NCI60 renal subpanel; total growth inhibition, inhibitor; five-dose): 3220 nM
CO[C@@H]1[C@@H](OC(N)=O)[C@@H](O)[C@H](Oc2ccc3c(O)c(NC(=O)c4ccc(O)c(CC=C(C)C)c4)c(=O)oc3c2C)OC1(C)C  colony survival (HCT-116 BRCA2 wild-type; 250 µM, mean of replicates A, B; baseline: untreated): 41.3%
O=[N+]([O-])C(=C\Nc1ccccc1O)/C=N/c1ccccc1O  efficacy (LDR; silenced CMV-GFP reporter derepression, qHTS): 21%
CCCC[C@H](NC(=O)[C@H](CC(C)C)NC(=O)[C@H](CO)NC(=O)[C@H](CO)NC(=O)[C@H](C)NC(=O)[C@H](CO)NC(=O)[C@H](C)N)C(=O)N[C@@H](CC(=O)O)C(=O)N[C@@H](CCCCN)C(=O)N[C@@H](CCC(=O)O)C(=O)N[C@@H](C)C(=O)N[C@H](C(=O)N[C@@H](Cc1ccc(O)cc1)C(=O)N[C@@H](Cc1ccccc1)C(=O)N[C@@H](C)C(=O)N[C@@H](Cc1c[nH]cn1)C(=O)N[C@@H](CC(C)C)C(=O)N[C@@H](CC(=O)O)C(=O)N[C@H](C(=O)N[C@H](C(=O)N[C@@H](Cc1c[nH]c2ccccc12)C(=O)O)[C@@H](C)CC)[C@@H](C)CC)C(C)C  Emax (COS-7 ETBR-GFP; calcium flux, agonist; ETBR/ETAR ratio 1:1): 81 ± 4%
O=C(NCc1ccc(OC(F)(F)F)cc1)[C@H]1CCCN(c2ncnc3[nH]c(-c4ccccc4)cc23)C1  inhibition (NCI-H2228; cell growth or viability, MTT; 1 µg/mL, 72 h): 72%
COCCCCCNc1nc(NCCCCCCN(C)C)c2cc(NC(=O)/C=C/CN(C)C)ccc2n1  viability (MCF7; CellTiter-Glo; 0.09766 µM, 48 h, unit not given; baseline: DMSO-treated cells): 1.06 and 1.03
Cc1cc(NC2CCN(C)CC2)ccc1-c1cc2c(N3CCC[C@H](C(=O)N4CCCCC4)C3)ncnc2[nH]1  inhibition (NCI-H2228; cell growth or viability, MTT; 1 µg/mL, 72 h): -3.18%
C(=N\Nc1nc(-c2ccccn2)nc2ccccc12)/c1ccccc1  Emax (LDR; silenced CMV-GFP reporter derepression, qHTS): 202%
CC(=O)NCCCN(C)CCCNc1cccc2c1C(=O)c1cccc(NCCCN(C)CCCNC(C)=O)c1C2=O  log2 fold change (SAS; RNA-Seq, refers to: MAP3K6 mRNA; 1 µM, 24 h; baseline: untreated cells): 0.939
COc1ccccc1-c1ccncc1C(=O)Nc1ccc(OCc2ccc(Cl)cc2)nn1  colony survival (DLD-1 BRCA2-/-; 20 µM; baseline: untreated): 96% and 100%
COc1cccc(OC)c1-c1cc(C(=O)NC2(C(=O)O)C3CC4CC(C3)CC2C4)nn1-c1ccc(C(=O)N(C)CCCN(C)CCCN(C)C(=O)[C@H](CCCCNC(=O)[C@H](CC(C)C)NC(=O)C2OC2C(=O)O)NC(=O)CN2CCN(CC(=O)[O-])CCN(CC(=O)[O-])CCN(CC(=O)[O-])CC2)cc1C(C)C.[177Lu+3] (mixture of isomers)  internalized fraction (HT-29; concentration not given, 120 min; baseline: added activity): 4.23 ± 0.26%
COc1ccc(CNc2ccc3c(c2)S(=O)(=O)C=C3)cc1  viability (A-172; resazurin; 5 µM, 24 h): 40%
CN[C@H]1CCN(C(=O)c2c(C)cc(C(F)(F)F)nc2-c2ccnc3cc(CN4C(=O)C5C(C4=O)C5(C)C)sc23)C1 (stereo partly shown)  IL-17A secretion (HT-29, fibroblast and PBMC co-culture; BioMAP CRC oncology system; 0.3 to 8.1 µM, 48 h): decreased
CCC(=O)N1CCN(c2ccc(NC(=O)c3ccc([N+](=O)[O-])o3)cc2Cl)CC1  EC50 (LDR; silenced CMV-GFP reporter derepression, qHTS): 1580 nM
Cc1ccc(-n2cc(CSc3nc4ccccc4n3Cc3cn(-c4ccc(C)cc4)nn3)nn2)cc1  cytotoxicity (MDA-MB-231; MTT; 500 ppm): 93.4%
CC(C)c1ccc(N(C)c2ccc3c(c2)OCC[C@H]3CNc2cnccc2C(=O)O)cc1  IC50 (TE4; cell viability, CellTiter-Glo; 7 days): 12.7 nM
Cc1cc(Cl)cc(-c2ccnc3cc(CN4C(=O)C5C(C4=O)C5(C)C)sc23)c1C[C@@H]1CNCCO1 (stereo partly shown)  apoptotic cells (CHP-212 resistant; annexin V/PI flow cytometry; 0.1 µM, 48 h): 11.7%
CC(=O)Oc1ccccc1C(=O)[Se]CC(=O)Nc1cccc(C(F)(F)F)c1  mean TGI (NCI60 renal subpanel; total growth inhibition, inhibitor; five-dose): 3590 nM
O=C(NN1C(=O)c2ccccc2NC1c1ccc([N+](=O)[O-])o1)c1ccc([N+](=O)[O-])cc1 (stereo not shown)  EC50 (LDR; silenced CMV-GFP reporter derepression, qHTS): 10000 nM
Cc1cc(NC2CCN(C)CC2)ccc1-c1cc2c(N3CCC[C@H](C(=O)Nc4ccc(C#N)cc4)C3)ncnc2[nH]1  inhibition (NCI-H2228; cell growth or viability, MTT; 0.2 µg/mL, 72 h): 66.1%
COc1c(C)c(OC(=O)c2ccccc2)c(C)c(OC(=O)c2ccccc2)c1C(=O)/C=C/c1ccccc1  selectivity index (SH-SY5Y; SRB; baseline: normal over SH-SY5Y IC50): 1
Cc1sc2c(c1C)C(c1ccc(Cl)cc1)=N[C@@H](CC(=O)NCC(=O)N1CCC3(CCC(C(=O)N4CCN(C(=O)c5cc(Cc6n[nH]c(=O)c7ccccc67)ccc5F)CC4)CC3)CC1)c1nnc(C)n1-2  cells in G2 phase (NCI-H82; 100 nM, 24 h): 11%
COc1ccccc1-c1ccncc1C(=O)Nc1nnc(OCc2ccc(Cl)cc2)s1  colony count (MDA-MB-231; 12 µM): 20 and 23
COc1ccc(NC(=O)C2CCCN(c3ncnc4[nH]c(-c5ccc(NC6CCN(C)CC6)cc5C)cc34)C2)cc1 (stereo not shown)  inhibition (NCI-H2228; cell growth or viability, MTT; 0.04 µg/mL, 72 h): 69.2%
COC1=C2CC(C)CC(OC)C(O)C(C)C=C(C)C(OC(N)=O)C(OC)C=CC=C(C)C(=O)NC(=CC1=O)C2=O (stereo not shown)  log fold change (Rh30; ChIP-seq, refers to: H3K36me3 peak; concentration not given, EIF3D intron chr22:36905200-36926599; baseline: untreated control): -0.506
Cc1cc(NC2CCN(C)CC2)ccc1-c1cc2c(N3CCC[C@H](C(=O)N[C@@H](C)c4ccccc4)C3)ncnc2[nH]1  inhibition (NCI-H2228; cell growth or viability, MTT; 0.04 µg/mL, 72 h): 20.1%
CN(C)c1ccc(-n2cc(COC(=O)[C@@]3(C)C=C(C(=O)OC(C)(C)C)C(=O)CC3)nn2)cc1  pRSK/tubulin ratio (HeLa; quantitative western blot; concentration not given, 30 (unit not given), added: EGF): 0.0767
